Experimental data collected from several papers.
Lines come from different studies, so protocols differ. ± marks the error that the study gave.
KARS1 66-597 del1-65: KARS1 66-597 del1-65 (Homo sapiens, UniProt Q15046)
Chain of UniProt Q15046 (whole entry, unmodified, looked up): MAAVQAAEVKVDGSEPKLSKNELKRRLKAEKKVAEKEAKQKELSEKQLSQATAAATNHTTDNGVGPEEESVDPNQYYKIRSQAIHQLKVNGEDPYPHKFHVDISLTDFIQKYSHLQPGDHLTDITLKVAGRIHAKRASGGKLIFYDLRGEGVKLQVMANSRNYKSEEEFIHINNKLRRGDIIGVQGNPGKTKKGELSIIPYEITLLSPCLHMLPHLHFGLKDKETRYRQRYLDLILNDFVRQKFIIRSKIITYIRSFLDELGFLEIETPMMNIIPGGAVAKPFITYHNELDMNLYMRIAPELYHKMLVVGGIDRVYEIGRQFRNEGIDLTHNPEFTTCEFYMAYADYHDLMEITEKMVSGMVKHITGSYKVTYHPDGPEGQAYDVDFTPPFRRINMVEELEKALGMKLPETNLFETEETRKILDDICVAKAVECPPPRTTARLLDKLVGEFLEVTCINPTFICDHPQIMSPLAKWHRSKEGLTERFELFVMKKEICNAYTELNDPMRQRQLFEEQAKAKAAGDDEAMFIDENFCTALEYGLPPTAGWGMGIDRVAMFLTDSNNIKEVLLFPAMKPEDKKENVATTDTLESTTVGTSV
TBK1 residues 1-657 S172A: TBK1 residues 1-657 S172A (Homo sapiens, UniProt Q9UHD2)
csn2 full length assumed: csn2 full length assumed (Streptococcus agalactiae, UniProt E7S4M0)
B1: STING1 155-379 S379A (Homo sapiens, UniProt Q86WV6); chain VAHGLAWSYYIGYLRLILPELQARIRTYNQHYNNLLRGAVSQRLYILLPLDCGVPDNLSMADPNIRFLDKLPQQTGDHAGIKDRVYSNSIYELLENGQRAGTCVLEYATPLQTLFAMSQYSQAGFSREDRLEQAKLFCRTLEDILADAPESQNNCRLIAYQEPADDSSFSLSQEVLRHLRQEEKEEVTVGSLKTSAVPSTSTMSQEPELLISGMEKPLPLRTDFA
B2: dmaW (Aspergillus fumigatus, UniProt Q50EL0); chain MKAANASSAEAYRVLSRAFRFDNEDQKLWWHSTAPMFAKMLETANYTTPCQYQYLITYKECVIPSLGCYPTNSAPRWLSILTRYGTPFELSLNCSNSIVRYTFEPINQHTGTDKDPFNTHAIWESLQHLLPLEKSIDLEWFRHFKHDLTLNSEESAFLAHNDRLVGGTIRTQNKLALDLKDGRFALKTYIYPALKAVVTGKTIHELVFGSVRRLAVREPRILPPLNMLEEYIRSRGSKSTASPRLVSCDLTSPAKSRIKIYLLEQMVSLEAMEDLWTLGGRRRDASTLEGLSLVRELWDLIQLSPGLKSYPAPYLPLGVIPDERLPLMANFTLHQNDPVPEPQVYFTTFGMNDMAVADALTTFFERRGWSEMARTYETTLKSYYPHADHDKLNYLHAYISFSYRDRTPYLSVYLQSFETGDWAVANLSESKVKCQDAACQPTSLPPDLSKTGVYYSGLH
B3: STING1 155-379 K370A (Homo sapiens, UniProt Q86WV6); chain VAHGLAWSYYIGYLRLILPELQARIRTYNQHYNNLLRGAVSQRLYILLPLDCGVPDNLSMADPNIRFLDKLPQQTGDHAGIKDRVYSNSIYELLENGQRAGTCVLEYATPLQTLFAMSQYSQAGFSREDRLEQAKLFCRTLEDILADAPESQNNCRLIAYQEPADDSSFSLSQEVLRHLRQEEKEEVTVGSLKTSAVPSTSTMSQEPELLISGMEAPLPLRTDFS
Chain of UniProt P0CAW2 (whole entry, looked up): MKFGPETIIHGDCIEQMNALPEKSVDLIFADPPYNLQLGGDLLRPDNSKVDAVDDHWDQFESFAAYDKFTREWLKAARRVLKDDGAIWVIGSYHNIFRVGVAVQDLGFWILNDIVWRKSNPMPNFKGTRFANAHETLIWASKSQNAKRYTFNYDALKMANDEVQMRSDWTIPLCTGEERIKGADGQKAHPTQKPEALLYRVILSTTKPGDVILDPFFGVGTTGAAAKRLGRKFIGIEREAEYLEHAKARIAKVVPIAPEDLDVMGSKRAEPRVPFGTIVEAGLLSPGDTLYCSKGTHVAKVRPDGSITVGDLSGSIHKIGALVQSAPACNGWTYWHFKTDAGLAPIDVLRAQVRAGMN

| Substance | target or system | assay | test system | setting | endpoint | result |
| --- | --- | --- | --- | --- | --- | --- |
| ATTTAAGATATCTTAAAT (dsDNA) | repressor C2 1-216 N46S (Salmonella phage P22, UniProt P69202) | filter binding | double-stranded DNA, one strand shown | NaCl 50 mM | Kd | 0.0504 µM |
| GGCUCUGGUAACUAGAGAUCCCUCAGACCAUGAGAAUGGCGCCCGAACAGGGACUUUAAAGUGAAAGUAACAGGGA (structured RNA) | KARS1 66-597 del1-65 | fluorescence anisotropy | folded RNA |  | binding | binds |
| ATGATCAGTACGATGTTCACTGTACTCTGACTCGCCTGACATGACTGACGGACTTGCACT (dsDNA; hemimethylated N6-methyladenine) | ccrMIM 1-358 (Caulobacter vibrioides, UniProt P0CAW2) | EMSA | double-stranded DNA, one strand shown | with: sinefungin 60 µM | Kd | 0.075 µM |
| B1 (STING1 155-379 S379A) | TBK1 residues 1-657 S172A | SPR |  | read off a plot, with: cGAMP 1 µM | Kd | 37 µM |
| DNA 1 GATTACTAAAGCTCAAAAGAAAATTTTCTACGAGGTTTTAGAGCTGTGCTGTTTCGAATGGTTCCAAAAC / DNA 2 AAAACAGACATATCAAGATCTAAAATGTCAGTTTTGGAACCATTCGAAACAGCACAGCTCTAAAACCTCGTAGAAAATTTTCTTTTGAGCTTTAGTAATC (dsDNA; 5' overhang) | csn2 full length assumed | EMSA | double-stranded DNA |  | binding | binds |
| ATTTAAGATATCTTAAAT (dsDNA; 3-deaza-A at 2,3,16,17) | repressor C2 1-216 (Salmonella phage P22, UniProt P69202) | filter binding | double-stranded DNA, one strand shown |  | binding | no binding |
| B2 (dmaW) | C/C=C/C=C(\C)COP(=O)(O)OP(=O)(O)O | steady-state kinetics |  | pH 7.5, 35 °C | kcat/Km | 200 ± 33.3 M⁻¹ s⁻¹ |
| GGCUCUGGUAACUAGAGAUCCCUCAGACCACUCUAGACGGUAUAUAUAUAUGUAAAAAUAUAUAUAUAUCUCUAGCAGUGGCGCCCGAACAGGGACUUUAAAGUGAAAGUAACAGGGA (structured RNA) | KARS1 66-597 del1-65 | fluorescence anisotropy | folded RNA |  | binding | binds |
| B3 (STING1 155-379 K370A) | TBK1 residues 1-657 S172A | SPR |  | read off a plot, with: cGAMP 1 µM | Kd | 17 µM |
| GTTTTAGAGCTGTGCTGTTTCGAATGGTTCCAAAAC (ssDNA) | csn2 full length assumed | EMSA | single-stranded DNA |  | binding | no binding |
| AAGGCTACCTCTTATTGAGAAGGTGATTT (dsDNA) | mat1-1-1 1-342 (Penicillium chrysogenum, UniProt B1GVB9) | EMSA | double-stranded DNA, one strand shown |  | binding | no binding |

A few entries again:
| Substance | target or system | assay | test system | setting | endpoint | result |
| --- | --- | --- | --- | --- | --- | --- |
| ATTTAAGATATCTTAAAT (dsDNA) | repressor C2 1-216 N46S (Salmonella phage P22, UniProt P69202) | filter binding | double-stranded DNA, one strand shown | NaCl 50 mM | Kd | 0.0504 µM |
